Assay results from different studies.
Each line is one published result; not all experiments were run side by side. Numbers after ± are the reported error.

O=C(Oc1nsnc1N1CCCCC1)N1CCOCC1  inhibition (trypsin; inhibitor; up to 300 µM, together with: denatured BSA substrate): no inhibition
CN1CC[C@H](c2c(O)cc(O)c3c(=O)cc(-c4ccccc4F)oc23)[C@H](O)C1  IC50 (CK1; kinase activity, inhibitor; together with: ATP at Km): > 1 µM
O=C(O)c1cc2cc(Cl)cc(OCc3cn(CCC(=O)N4CCC(c5ccc(Cl)c(Cl)c5)CC4)nn3)c2c(Cl)c1OCc1cn(CCC(=O)N2CCC(c3ccc(Cl)c(Cl)c3)CC2)nn1  selectivity ratio (mPTPB vs mammalian PTPs; enzyme activity, inhibitor, biochemical enzyme; baseline: mammalian PTP over mPTPB): > 25 fold
COc1ccc(CN[C@@H]2CO[C@H](C(c3ccccc3)c3ccccc3)C[C@H]2O)cc1  inhibition (calcium channel; radioligand binding; 10 µM, together with: [3H]nitrendipine): 3.1%
COc1ccc(OCC2c3cc(OC(C)C)ccc3CCN2C(=O)c2cccc(Cl)c2)cc1 (racemic)  effect on receptor activity (GluN1/GluN3 NMDA receptor; glycine-activated current; concentration not given): no effect
CCCCCCCCCC(=O)c1cc[nH]c1  HapR protein level (HapR; Vibrio cholerae; 1 µM; baseline: DMSO): increased
CC(=NO)c1cccc(C(C)(C)NC(=O)Nc2ccc(Cl)c(-c3nc(C(F)(F)F)cs3)c2)c1  apparent Ki ratio (IMPDH 2, Staphylococcus aureus, Y446C; baseline: mutant over wild type): 220
Cc1nc2c[nH]c(/C=C/C=C/c3ccc(N(C)C)cc3)cn-2c1=O  signal enhancement relative to ThT (PA-E2 fibrils; PA-E2 500 µM; baseline: ThT): 52 fold
CC(C)(NC(=O)Nc1ccc(Cl)c(-c2nc(C(F)(F)F)cs2)c1)c1cccc(C(N)=NO)c1  apparent Ki ratio (IMPDH 2, Staphylococcus aureus, Y446C; baseline: mutant over wild type): 240
Cc1cc(N)nc(-c2ccc(CNCCc3cccc(F)c3)cc2)c1  Ki (Bacillus subtilis NOS bi-domain; enzyme activity, inhibitor): 1.94 µM
CN(Cc1cn(-c2ccc(OCCCF)cc2)nn1)S(=O)(=O)c1ccc(CN2CCOCC2)cc1  inhibition of tracer uptake (CXCR4; blocking agent, microPET imaging; male J:NU nude mouse, bone marrow; intraperitoneal, 30 mg/kg, 30 min before tracer, together with: intravenous 18F-labelled compound; baseline: tracer alone): > 95%
CC(C)(NC(=O)Nc1ccc(Cl)cc1)c1cccc(C(=N)NO)c1  apparent Ki ratio (IMPDH 2, Staphylococcus aureus, G445S; baseline: mutant over wild type): 330
CCCN(CCN1CCN(c2nccc3ccccc23)CC1)[C@H]1CCc2nc(N)sc2C1  EC50 (dopamine D3 receptor, mouse; agonist; D2 receptor knockout mouse, nucleus accumbens membranes): 0.0426 ± 0.0258 µM
